Measured values from different studies.
Protocols differ between the studies behind these lines. ± gives the spread as reported.
CHRM3: Muscarinic acetylcholine receptor M3 (CHRM3, Homo sapiens, UniProt P20309)
UniProt P20309, sequence (whole entry, looked up): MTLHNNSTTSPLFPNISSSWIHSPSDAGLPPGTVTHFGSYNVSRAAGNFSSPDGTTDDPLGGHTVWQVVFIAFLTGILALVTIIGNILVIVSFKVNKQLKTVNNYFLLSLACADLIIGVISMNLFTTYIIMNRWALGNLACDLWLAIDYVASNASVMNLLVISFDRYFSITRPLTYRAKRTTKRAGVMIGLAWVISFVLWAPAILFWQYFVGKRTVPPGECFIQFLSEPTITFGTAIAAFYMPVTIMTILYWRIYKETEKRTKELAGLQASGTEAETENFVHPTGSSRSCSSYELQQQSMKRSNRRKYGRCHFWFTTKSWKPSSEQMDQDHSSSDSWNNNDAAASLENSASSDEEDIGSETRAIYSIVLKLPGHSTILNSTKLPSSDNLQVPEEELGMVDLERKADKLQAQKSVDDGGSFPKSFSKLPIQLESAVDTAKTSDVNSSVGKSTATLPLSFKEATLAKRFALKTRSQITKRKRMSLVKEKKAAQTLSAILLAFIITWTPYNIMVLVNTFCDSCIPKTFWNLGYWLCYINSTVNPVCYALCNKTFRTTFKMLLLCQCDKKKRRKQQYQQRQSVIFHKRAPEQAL
NTSR1: Neurotensin receptor type 1 (NTSR1, Homo sapiens, UniProt P30989)
UniProt P30989, sequence (whole entry, looked up): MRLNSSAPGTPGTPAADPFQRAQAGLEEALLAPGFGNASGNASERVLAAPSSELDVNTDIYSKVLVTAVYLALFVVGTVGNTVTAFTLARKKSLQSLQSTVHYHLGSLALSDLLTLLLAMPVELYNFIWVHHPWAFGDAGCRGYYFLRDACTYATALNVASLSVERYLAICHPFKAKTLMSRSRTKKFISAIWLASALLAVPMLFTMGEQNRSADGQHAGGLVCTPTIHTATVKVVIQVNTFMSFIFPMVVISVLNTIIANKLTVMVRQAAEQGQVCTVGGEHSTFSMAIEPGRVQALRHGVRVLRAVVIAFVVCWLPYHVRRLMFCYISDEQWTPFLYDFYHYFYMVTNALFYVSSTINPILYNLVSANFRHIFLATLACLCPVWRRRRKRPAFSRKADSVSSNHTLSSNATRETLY
TDP1: Tyrosyl-DNA phosphodiesterase 1 (TDP1, Homo sapiens, UniProt Q9NUW8)
UniProt Q9NUW8, sequence (whole entry, looked up): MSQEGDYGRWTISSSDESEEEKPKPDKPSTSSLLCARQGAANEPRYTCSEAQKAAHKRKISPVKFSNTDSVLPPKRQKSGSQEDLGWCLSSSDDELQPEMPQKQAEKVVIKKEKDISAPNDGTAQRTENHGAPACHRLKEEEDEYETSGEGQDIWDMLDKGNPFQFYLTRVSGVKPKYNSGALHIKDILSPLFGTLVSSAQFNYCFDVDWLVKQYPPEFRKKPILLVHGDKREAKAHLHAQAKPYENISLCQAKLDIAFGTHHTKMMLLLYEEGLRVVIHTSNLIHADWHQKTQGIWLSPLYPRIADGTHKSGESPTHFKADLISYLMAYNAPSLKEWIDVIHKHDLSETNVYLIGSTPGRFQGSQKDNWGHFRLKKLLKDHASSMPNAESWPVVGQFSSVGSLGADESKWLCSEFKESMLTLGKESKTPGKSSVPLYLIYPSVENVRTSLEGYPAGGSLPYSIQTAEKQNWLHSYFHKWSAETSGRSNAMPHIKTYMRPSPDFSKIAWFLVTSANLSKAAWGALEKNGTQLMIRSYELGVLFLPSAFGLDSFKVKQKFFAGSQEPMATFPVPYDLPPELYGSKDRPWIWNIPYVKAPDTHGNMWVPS
UniProt Q969F8, sequence (whole entry, unmodified, looked up): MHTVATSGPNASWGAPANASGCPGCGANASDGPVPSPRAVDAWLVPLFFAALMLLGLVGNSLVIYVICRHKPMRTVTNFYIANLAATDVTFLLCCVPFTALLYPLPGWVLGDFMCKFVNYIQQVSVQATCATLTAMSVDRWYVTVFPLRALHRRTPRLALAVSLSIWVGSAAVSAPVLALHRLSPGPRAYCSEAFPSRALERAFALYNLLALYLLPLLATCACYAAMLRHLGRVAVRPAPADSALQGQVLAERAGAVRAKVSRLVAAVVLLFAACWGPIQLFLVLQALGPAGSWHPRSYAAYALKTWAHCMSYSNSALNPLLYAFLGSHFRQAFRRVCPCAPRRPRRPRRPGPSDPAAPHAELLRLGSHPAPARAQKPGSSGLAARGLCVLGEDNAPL
UniProt O09047, sequence (whole entry, looked up): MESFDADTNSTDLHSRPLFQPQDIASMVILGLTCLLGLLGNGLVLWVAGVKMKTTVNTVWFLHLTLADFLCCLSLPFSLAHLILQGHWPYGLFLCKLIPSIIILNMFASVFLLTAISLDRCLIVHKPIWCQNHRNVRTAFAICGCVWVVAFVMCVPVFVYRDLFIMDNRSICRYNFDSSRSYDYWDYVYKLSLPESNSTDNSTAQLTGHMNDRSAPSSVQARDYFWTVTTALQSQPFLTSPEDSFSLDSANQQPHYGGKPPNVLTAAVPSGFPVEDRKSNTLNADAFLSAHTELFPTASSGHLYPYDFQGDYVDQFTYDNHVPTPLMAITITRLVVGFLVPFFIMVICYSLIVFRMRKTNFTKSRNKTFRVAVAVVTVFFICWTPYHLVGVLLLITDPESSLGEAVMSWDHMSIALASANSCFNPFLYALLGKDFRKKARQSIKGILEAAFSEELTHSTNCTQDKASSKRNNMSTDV
UniProt P24530, sequence (whole entry, looked up): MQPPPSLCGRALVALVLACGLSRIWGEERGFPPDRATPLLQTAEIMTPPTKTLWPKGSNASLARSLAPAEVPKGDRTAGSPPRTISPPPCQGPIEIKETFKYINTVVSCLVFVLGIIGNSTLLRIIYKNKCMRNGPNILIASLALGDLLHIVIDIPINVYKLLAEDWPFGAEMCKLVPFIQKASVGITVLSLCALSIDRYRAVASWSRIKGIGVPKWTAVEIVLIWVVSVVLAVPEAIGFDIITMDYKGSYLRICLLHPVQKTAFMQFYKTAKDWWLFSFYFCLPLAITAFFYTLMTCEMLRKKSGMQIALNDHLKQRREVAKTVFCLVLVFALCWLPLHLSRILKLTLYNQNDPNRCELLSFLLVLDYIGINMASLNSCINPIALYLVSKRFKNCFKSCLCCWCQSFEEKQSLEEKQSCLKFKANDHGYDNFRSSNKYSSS
UniProt P34972, sequence (whole entry, unmodified, looked up): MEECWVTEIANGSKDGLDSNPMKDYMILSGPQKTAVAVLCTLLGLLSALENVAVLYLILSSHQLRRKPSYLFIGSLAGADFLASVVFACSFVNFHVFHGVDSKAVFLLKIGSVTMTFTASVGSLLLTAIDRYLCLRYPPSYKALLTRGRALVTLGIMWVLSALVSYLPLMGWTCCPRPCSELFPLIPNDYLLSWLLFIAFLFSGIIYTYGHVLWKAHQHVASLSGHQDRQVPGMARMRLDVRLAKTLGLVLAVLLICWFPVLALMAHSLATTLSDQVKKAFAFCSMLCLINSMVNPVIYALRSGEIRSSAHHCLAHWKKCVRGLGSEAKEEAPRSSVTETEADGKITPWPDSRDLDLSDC
UniProt Q8TDU9, sequence (whole entry, unmodified, looked up): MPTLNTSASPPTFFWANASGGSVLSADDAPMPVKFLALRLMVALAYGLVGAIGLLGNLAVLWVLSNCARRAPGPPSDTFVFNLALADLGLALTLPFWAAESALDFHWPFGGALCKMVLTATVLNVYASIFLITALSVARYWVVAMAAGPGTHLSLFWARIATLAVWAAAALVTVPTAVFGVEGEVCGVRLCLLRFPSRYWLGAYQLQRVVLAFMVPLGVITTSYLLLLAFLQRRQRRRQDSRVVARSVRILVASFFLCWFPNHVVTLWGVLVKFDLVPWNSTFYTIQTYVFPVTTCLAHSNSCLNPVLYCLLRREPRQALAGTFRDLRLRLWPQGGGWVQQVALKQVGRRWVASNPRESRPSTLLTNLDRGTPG

Compound | target | test | system | setting | scale | quantity | result
CCCCCCOc1ccc(C(=O)OCCN2CC=CCC2)cc1 | CHRM3 | – | membranes | 1 µM, 15 h, together with: carbachol | reference: control | Emax | 1.5 ± 0.1 fold
CCCC[C@H](NC(=O)[C@H](CC(C)C)NC(=O)[C@H](CO)NC(=O)[C@H](CO)NC(=O)[C@H](C)NC(=O)[C@H](CO)NC(=O)[C@H](C)N)C(=O)N[C@@H](CC(=O)O)C(=O)N[C@@H](CCCCN)C(=O)N[C@@H](CCC(=O)O)C(=O)N[C@@H](C)C(=O)N[C@H](C(=O)N[C@@H](Cc1ccc(O)cc1)C(=O)N[C@@H](Cc1ccccc1)C(=O)N[C@@H](C)C(=O)N[C@@H](Cc1c[nH]cn1)C(=O)N[C@@H](CC(C)C)C(=O)N[C@@H](CC(=O)O)C(=O)N[C@H](C(=O)N[C@H](C(=O)N[C@@H](Cc1c[nH]c2ccccc12)C(=O)O)[C@@H](C)CC)[C@@H](C)CC)C(C)C | EDNRB (Homo sapiens, UniProt P24530) | agonist | HEK293 | ETBR/ETAR ratio 1:0 | – | Emax | 98 ± 5%
COc1ccccc1C1CCN(c2nc(C3CC3)nc3cc(C(F)(F)F)c(OC)cc23)CC1 | NTSR1 | β-arrestin recruitment, agonist | HEK-293T | – | – | Emax | 75.4%
CCCCCCOc1ccc(C(=O)OCC[N+]2(C)CC=CCC2)cc1 (stereo not drawn) | CHRM3 | – | membranes | 10 µM, 15 h, together with: carbachol | reference: control | Emax | 1.29 ± 0.06 fold
COc1ccccc1C1CCN(c2nc(C3CC3)nc3ccc(N(C)CCO)cc23)CC1 | NTSR1 | β-arrestin recruitment, agonist | HEK-293T | – | – | Emax | 113%
Cc1c(C=NOCc2ccc3nc(-c4ccccc4)c(Nc4ccc(C(=O)O)cc4)n3c2)c2ccccc2n1CC(=O)O (mixture of isomers) | TDP1 | enzyme activity, inhibitor | – | 100 µM, unpurified compound | – | inhibition | -4.6%
CNC(=N)NCCC[C@H](NC(=O)[C@H](CC(C)C)NC(=O)NNC(=O)[C@H](Cc1ccccc1)NC(=O)[C@@H](NC(=O)[C@H](CC(N)=O)NC(=O)[C@@H]1C[C@@H](O)CN1C(=O)[C@@H](Cc1ccc(O)cc1)NC(C)=O)[C@@H](C)O)C(=O)N[C@@H](Cc1c[nH]c2ccccc12)C(N)=O | KiSS-1 receptor (KISS1R, Homo sapiens, UniProt Q969F8, H309A) | inositol phosphate, agonist | HEK293 | – | – | Emax | 98.6%
O=C(O)c1ccc(Nc2c(-c3ccccc3)nc3ccc(CON=Cc4ccc(-c5nc6ccccc6s5)o4)cn23)cc1 | TDP1 | enzyme activity, inhibitor | – | 100 µM, unpurified compound | – | inhibition | 24%
CCCCOc1ccc(C(=O)OCCN2CC=CCC2)cc1 | CHRM3 | – | membranes | 10 µM, 15 h, together with: carbachol | reference: control | Emax | 1.41 ± 0.09 fold
Cc1cc(C(c2ccc(Cl)cc2)c2ccc(Cl)cc2)sc1C(=O)N[C@@H](CCCN=C(N)N)C(=O)O | C3a anaphylatoxin chemotactic receptor (C3ar1, Mus musculus, UniProt O09047) | GoA dissociation, agonist, NanoBiT G-protein | – | – | – | Emax | 55.6 ± 0.61%
CC[C@H](C)[C@@H]1NC(=O)[C@H](Cc2ccccc2)NC(=O)[C@H](CCC(=O)O)NC(=O)[C@H](CCCNC(=N)N)NC(=O)CNC(=O)[C@@H](NC(=O)[C@H](CC(C)C)NC(=O)[C@H](CCCNC(=N)N)NC(=O)[C@@H](NC(=O)CNC(=O)[C@H](Cc2ccc(O)cc2)NC(=O)[C@@H]2CCCN2C(=O)[C@H](C)NC(=O)[C@H](C)NC(=O)[C@@H](N)CCCNC(=N)N)C(C)C)CSSC[C@@H]2NC(=O)[C@@H](NC(=O)[C@H](CO)NC(=O)[C@H](CO)NC(=O)[C@H](CO)NC(=O)[C@H](CC(C)C)NC(=O)CNC(=O)[C@H](C)NC(=O)[C@H](CC(C)C)NC(=O)[C@@H](NC(=O)[C@@H](N)CC(=O)O)C(C)C)CSSC[C@H](NC(=O)CNC(=O)[C@H](Cc3c[nH]c4ccccc34)NC(=O)[C@H](CCCCN)NC2=O)C(=O)N[C@@H](CO)C(=O)N[C@@H](CCCCN)C(=O)N[C@@H](CO)C(=O)N[C@@H](CCC(=O)O)C(=O)N[C@@H]([C@@H](C)CC)C(=O)N[C@@H](CO)C(=O)N[C@@H](CO)C(=O)N[C@@H](CC(C)C)C(=O)N[C@H](C(=O)O)CSSC[C@@H](C(=O)NCC(=O)NCC(=O)N[C@@H](CO)C(=O)N[C@@H](CCCNC(=N)N)C(=O)N[C@@H](Cc2c[nH]c3ccccc23)C(=O)O)NC(=O)[C@H]([C@@H](C)O)NC(=O)[C@H](Cc2ccccc2)NC(=O)[C@H]([C@@H](C)CC)NC(=O)[C@H](C(C)C)NC(=O)[C@H](C)NC(=O)[C@H](CCCNC(=N)N)NC1=O | RXFP4 (Homo sapiens, UniProt Q8TDU9, F105A) | – | HEK-293T | – | reference: wild type | Emax | 76.3 ± 6.64%
O=C1C[C@H](c2nc(-c3ccc(F)c4cn[nH]c34)no2)CCCN1c1ccc(F)cc1 (racemic) | CNR2 (Homo sapiens, UniProt P34972, H95A) | cAMP, agonist, luciferase | – | – | – | Emax | 50.3%

A few entries again:
Compound | target | test | system | setting | scale | quantity | result
CCCC[C@H](NC(=O)[C@H](CC(C)C)NC(=O)[C@H](CO)NC(=O)[C@H](CO)NC(=O)[C@H](C)NC(=O)[C@H](CO)NC(=O)[C@H](C)N)C(=O)N[C@@H](CC(=O)O)C(=O)N[C@@H](CCCCN)C(=O)N[C@@H](CCC(=O)O)C(=O)N[C@@H](C)C(=O)N[C@H](C(=O)N[C@@H](Cc1ccc(O)cc1)C(=O)N[C@@H](Cc1ccccc1)C(=O)N[C@@H](C)C(=O)N[C@@H](Cc1c[nH]cn1)C(=O)N[C@@H](CC(C)C)C(=O)N[C@@H](CC(=O)O)C(=O)N[C@H](C(=O)N[C@H](C(=O)N[C@@H](Cc1c[nH]c2ccccc12)C(=O)O)[C@@H](C)CC)[C@@H](C)CC)C(C)C | EDNRB (Homo sapiens, UniProt P24530) | agonist | HEK293 | ETBR/ETAR ratio 1:0 | – | Emax | 98 ± 5%
